# Experimental data of several laboratories.
# Protocols differ between the studies behind these lines.
SMILES,cell line,test,setting,IC50
CC(C)C12OC1C1OC13C1(C)CCC4=C(COC4=O)C1CC1OC13C2OC(=O)CCC(=O)OC1OC(CO)C(O)C(O)C1O (centres unmarked),MDA-MB-453,"cell growth or viability, XTT",47 h,0.53 µM
Cc1cc(Oc2nc(N3CC[C@@H](c4ccncc4)C3)ncc2F)[nH]n1,Squamous cancer cell lines,cell proliferation,,61.7 µM
Cc1ccccc1/C=C/C(=O)N[C@@H]1C(=O)N[C@@H](Cc2ccccc2)C(=O)N[C@H](CC(C)C)C(=O)N[C@@H](C(C)C)C(=O)N[C@@H](C)C(=O)N[C@H](CCC(N)=O)C(=O)NCC(=O)N2CCC[C@H]2C(=O)N[C@@H](CCCNC(=N)N)C(=O)N[C@H](Cc2ccccc2)C(=O)O[C@H]1C,SNU-638,,,> 20 µM
C#Cc1ccc(N2CCOCC2)c(/C=N/NC(=O)CCl)c1,HT-29,cell growth or viability,,4.3 µM
CC(=O)[O][Pt]([NH2])([NH2])([Cl])([Cl])[O]C(=O)C(Cl)Cl,LoVo,"cell growth or viability, MTT",72 h,1.27 µM
Cc1sc2c(c1C)C(c1ccc(NC(=O)c3cc([N+](=O)[O-])ccc3F)cc1)=N[C@@H](CC(=O)OC(C)(C)C)c1nnc(C)n1-2,MOLT-4,"cell growth or viability, ATP luminescence",72 h,7e-06 µM
CC(C)C12OC1C1OC13C1(C)CCC4=C(COC4=O)C1CC1OC13C2OC(=O)CCCOC1OC(CO)C(O)C(O)C1O (centres unmarked),SK-HEP1,"cell growth or viability, XTT",47 h,5.9 µM
O=C1C=CC(=O)c2ccccc21,HuCC-A1,"cell growth or viability, MTT",,21.2 µM
C[C@H]1[C@H](OC(=O)CCC(=O)OCCC2CCN(CC(=O)Nc3ccc([N+](=O)[O-])c(C(F)(F)F)c3)CC2)O[C@@H]2O[C@@]3(C)CC[C@H]4[C@H](C)CC[C@@H]1[C@@]24OO3,7702 normal human cells,"cell growth, CCK-8",48 h,26.1 µM
CCOc1ccccc1-n1c(CN2CCNCC2)nc2ccccc2c1=O,LS180,cell growth or viability,72 h,0.15 µM
O=C1C=CC(=C(c2ccc(O)cc2)c2c(C#Cc3ccc(O)cc3)cccc2-c2ccc(O)cc2)C=C1,NCI-H460,"cell growth or viability, MTT",48 h,13.2 µM
c1cnc2c(c1)c1nccnc1c1cccnc12,L02,"cell growth or viability, MTT",48 h,> 50 µM
Cc1ccccc1/C=C/C(=O)N[C@H]1COC(=O)[C@H](CC(=O)O)NC(=O)[C@H]([C@@H](O)C(=O)c2ccccc2N)NC(=O)[C@@H](Cc2ccccc2)NC(=O)[C@@H](NC(=O)[C@@H](Cc2ccccc2)NC(=O)CN)[C@@H](C)OC1=O,SNU-638,,,10.3 µM
O=C(O)c1ccc([S][Au][PH](c2ccccc2)(c2ccccc2)[c-]2cccc2)cc1.[Fe+2].c1cc[cH-]c1,HEK-293T,"cell growth or viability, XTT",24 h,4.11 µM
CSc1ccc2c(c1)c(CCN)c(C)n2Cc1ccc(Cl)cc1,HMC3,"nuclear intensity, high-content imaging",geometric mean,9.64 µM
CN(C)C(=O)[C@@H](NC(=O)c1cc(-c2ccnn2C)ccc1-c1ccc(C(F)(F)F)cc1)c1cccc(C(F)(F)F)c1,"NKL effector, Ba/F3-ULBP3 target","NKG2D-mediated cell killing, inhibitor",,0.3 µM
Cc1cc(Nc2nc(C[C@@]3(C(=O)O)CCN(Cc4cccc(Cl)c4F)[C@H](C)C3)cc(C)c2F)[nH]n1,IMR-32,"cell growth or viability, ATP luminescence",5 days,0.0113 µM
Cc1sc2c(c1C)C(c1ccc(-c3cccc(NC(=O)c4cnn5cccnc45)c3)cc1)=N[C@@H](CC(N)=O)c1nnc(C)n1-2,NB-4,"cell growth or viability, ATP luminescence",72 h,0.008 µM
CC[C@H](C)[C@@H]([C@@H](CC(=O)N1CCC[C@H]1[C@H](OC)[C@@H](C)C(=O)N[C@H](C)[C@@H](O)c1ccccc1)OC)N(C)C(=O)[C@@H](NC(=O)[C@H](C(C)C)N(C)C(=O)OCc1ccc(NC(=O)[C@H](CCCNC(N)=O)NC(=O)[C@@H](NC(=O)CCCc2cn(CC(=O)N[C@@H](CCCCNC(=O)CC[C@H](NC(=O)c3ccc(NCc4cnc5nc(N)[nH]c(=O)c5n4)cc3)C(=O)O)C(=O)NCCCC[C@H]3NC(=O)[C@H](CCCCN)NC(=O)[C@H](CCCNC(N)=O)NC(=O)[C@H](Cc4ccc(O)cc4)NC(=O)[C@@H](NC(=O)[C@H](Cc4ccc5ccccc5c4)NC(=O)[C@H](CCCNC(=N)N)NC(=O)[C@@H](N)CCCNC(=N)N)CSSC[C@@H](C(=O)N[C@@H](CCCNC(=N)N)C(N)=O)NC(=O)[C@H](CCCNC(N)=O)NC(=O)[C@H](CCCNC(=N)N)NC(=O)[C@H](Cc4ccc(O)cc4)NC(=O)[C@@H]4CCCN4C3=O)nn2)C(C)C)cc1)C(C)C,L02,"cell growth or viability, CCK-8",,4.45 µM
CC(=O)O[C@@H]1C[C@@H](C)O[C@H]2O[C@@H]3C[C@@H]4CC[C@@H]5[C@H](CC[C@]6(C)[C@@H](C7=CC(=O)OC7)CC[C@]56O)[C@@]4(C)C[C@H]3O[C@]21O,L6,"cell growth or viability, resazurin",72 h,9.38 µM
Cc1ccc2c(Br)cc(Br)c([O-])c2n1.Cc1ccc2c(Br)cc(Br)c([O-])c2n1.[Co+2].c1cnc2c(c1)c1nccnc1c1cccnc12,BEL-7404,"cell growth or viability, MTT",48 h,4.09 µM
CSc1ccc2c(c1)c(CCN)c(C)n2Cc1ccccc1Cl,HMC3,"cell growth or viability, imaging",,4.02 µM
CCC1(c2ccc(NC(=O)CCC(=O)OC3OC4OC5(C)CCC6C(C)CCC(C3C)C46OO5)cc2)CCC(=O)NC1=O (mixture of isomers),7702 normal human cells,"cell growth, CCK-8",48 h,> 50 µM
